Published values pooled from the literature.
Each line is one published result; not all experiments were run side by side. Numbers after ± are the reported error.

SMILES	target	test	test system	conditions	how to read	quantity	value
C=C(CC)C(=O)c1ccc(OCC(=O)NCCCCNC(=O)COc2ccc(C(=O)C(=C)CC)c(Cl)c2Cl)c(Cl)c1Cl	glutathione S-transferase, human	enzyme activity	SGC-7901 cell lysate	0.2 µM		inhibition	~80%
CN(C)CCCNC(=O)c1cc(NC(=O)c2cc(NC(=O)c3cc(NC(=O)c4nc(NC(=O)[C@H](N)CCNC(=O)c5cc(NC(=O)c6cc(NC(=O)c7nc(NC(=O)c8nccn8C)cn7C)co6)cn5C)cn4C)cn3C)cn2C)cn1C	12-mer DNA duplex	DNA binding, UV thermal denaturation		2.4 µM, pH 7.0, match base pair T·A, together with: DNA duplex 2 µM		melting temperature	77.1 ± 0.8 °C
Nc1c2[nH]nc3c2nc[n+]1[C@@H]1O[C@H](COP(=O)(O)OP(=O)([O-])OC[C@H]2O[C@@H]3[C@H](O)[C@@H]2O)[C@@H](O)[C@H]1O	cADPR receptor	Ca2+ release, fura fluorimetry	permeabilised Jurkat T cells	concentration not given		activity class	active
Cc1sc2ncn(CC(=O)N3CCCC3)c(=O)c2c1-c1ccc(Cl)cc1	NMDA receptor rat recombinant	potentiator, voltage clamp		dose not given, together with: saturating agonists	reference: control	current potentiation	1.6 to 2.8 fold
Cn1c(=O)oc2ccc(-c3ccc(CC(C#N)NC(=O)C4CNCCCO4)c(F)c3)cc21 (stereo not shown)	neutrophil elastase (rat)	enzyme activity, inhibitor	rat, bone marrow cells			ED50	1.13 mg/kg
CC1(C)COCN1C(=O)n1nnc2c(F)cc(F)cc21	carboxylesterases (rat)	inhibitor	rat liver microsomes	10 µM	reference: control	remaining activity	82 ± 5%
CN(C)CCCNC(=O)c1cc(NC(=O)c2cc(NC(=O)c3cc(NC(=O)c4nc(NC(=O)[C@H](N)CCNC(=O)c5cc(NC(=O)c6cc(NC(=O)c7nc(NC(=O)c8nccn8C)cn7C)cn6C)co5)cn4C)cn3C)cn2C)cn1C	12-mer DNA duplex	DNA binding, UV thermal denaturation		2.4 µM, pH 7.0, mismatch base pair C·G, together with: DNA duplex 2 µM		melting temperature	70 ± 0.4 °C
C#CCNC(=O)[C@H]1Cc2c([nH]c3ccccc23)[C@@H](c2ccc3c(c2)OCO3)N1C(=O)C=C	human SARM1	gel-based ABPP	HEK293T expressing SARM1	20 µM, 1 h		target engagement	active
CC(C)c1cnc(-c2cc(Cl)ccc2F)cc1Nc1ccncc1C(=O)NC(CO)CO	TGF-β receptor type 1 (human)	SMAD2 Ser465/467 phosphorylation, inhibitor	human PBMC	total drug, together with: TGF-β		IC50	151 ± 20.6 nM
C1=[N+]2CCCC[N+]3=Cc4ccc5[n]4[Au-]23[n]2c1ccc2-c1nc2ccccc2nc1-5.F[P-](F)(F)(F)(F)F	dsDNA fragment human ACTN3 291 bp	DNA melting		50 µM		delta Tm	4.4 °C
CC(CCC(=O)NCc1ccc(C(=O)NO)cc1)C1CCC2C3C(O)CC4CC(O)CCC4(C)C3CCC12C (stereo not shown)	HDAC6	immunoblotting	cystic human cholangiocytes	2 µM, 24 h		acetylated α-tubulin level	increased
CCCCN1C(=O)c2cccc3c(NCCCCCCN4CCOCC4)ccc(c23)C1=O	lysosomes	confocal lambda scanning	HEK293	lysosomal micro-polarity		emission maximum	519 nm
CC(=O)N[C@@H](CC(N)=O)C(=O)NCC(=O)N[C@@H](C)C(=O)N[C@@H](C)C(N)=O	Asn-Gly peptide isomerisation to succinimide	1H NMR time course		pH 7.4, 28 °C		rate constant k1	0.0047 h⁻¹
O=C(/C=C/c1ccc(O)cc1)OCCCC[P+](c1ccccc1)(c1ccccc1)c1ccccc1	glutathione peroxidase, rat		rat mitochondria	10 µM, 15 and 30 min		glutathione peroxidase activity	increased
NS(=O)(=O)c1ccc(-n2nc(C(F)(F)F)cc2-c2ccc(F)cc2F)cc1	dog COX-1 and COX-2		dog whole blood		reference: IC50 COX-1 over COX-2	selectivity ratio	19.4
O=C(O)c1ccc(/C=C2\SC(=S)N(Cc3cccc(C(F)(F)F)c3)C2=O)cc1	NLRP3 inflammasome	inhibitor, refers to: caspase-1 activation and IL-1β	PBMC, LPS-primed	concentration not given, dose-dependent, together with: nigericin		IL-1β production	decreased
C[N+](C)(CF)CCO	TMA lyase	TMA production, whole-cell	Proteus mirabilis, wild type			EC50	2 nM

SMILES	target	test	test system	conditions	how to read	quantity	value
O=C1CO[C@H](CNC(=O)C2(c3ccc(Cl)cc3)CC2)CN1C1Cc2ccccc2C1	other chemokine receptors	β-arrestin recruitment		1 µM		activity	inactive
COC1CCC(Nc2nc(-c3nccn3C)nc3sc(-c4ccn(C)n4)c(-c4ccccc4)c23)C1 (stereo not shown)	Ras	Ras-GTP complex formation, inhibitor, GTP pull-down	NCI-H1975	6 h, together with: EGF 15 min		IC50	1000 to 3000 nM
O=C(/C=C/c1ccc(O)c(O)c1)OCCCC[P+](c1ccccc1)(c1ccccc1)c1ccccc1	superoxide dismutase, rat		rat mitochondria	10 µM, 30 min		inhibition	≤ 10%
CN(C)CCCNC(=O)c1cc(NC(=O)c2cc(NC(=O)c3cc(NC(=O)c4nc(NC(=O)[C@H](N)CCNC(=O)c5cc(NC(=O)c6cc(NC(=O)c7nc(NC(=O)c8nccn8C)cn7C)cn6C)cn5C)cn4C)cn3C)cn2C)cn1C	12-mer DNA duplex	DNA binding, UV thermal denaturation		2.4 µM, pH 7.0, mismatch base pair C·G, together with: DNA duplex 2 µM		melting temperature	72.3 ± 0.3 °C
O=C1c2c(O)cc(O)cc2-c2c(-c3ccc(O)cc3)oc3cc(O)cc1c23	estrogen receptor alpha Y537S human	degrader, ELISA	MCF7 ESR1 Y537S heterozygous	10 µM, 24 h	reference: vehicle	reduction in protein level	71.5%
O=c1c(O)cccn1CCCN1CCN(CCCn2cccc(O)c2=O)CC1	Fe(III)	mono-HOPO complex formation		25 °C, ionic strength 0.10 M		log β	13.6
CO[C@@H]1[C@H](O)[C@@H](COP(=O)(O)OP(=O)([S-])OP(=O)(S)OP(=O)(O)OC[C@H]2O[C@@H](n3cnc4c(=O)[nH]c(N)nc43)[C@H](O)[C@@H]2O)O[C@H]1n1c[n+](C)c2c(O)nc(N)nc21 (mixture of isomers)	Schizosaccharomyces pombe Dcp1/Dcp2	substrate		5 to 15 min, RNA capped with compound		decapped RNA	10 to 30%
Cc1c(OCc2ccccc2)c(=O)ccn1CCCOC(=O)c1ccccc1[N+](=O)[O-]	β-hematin formation			200 µg/mL, 24 h, 60 °C		inhibition	1%
CCCCC/C=C/C(=O)CCc1ccc(O)c(OC)c1	mAb 6-AT6	antibody binding, indirect competitive ELISA		together with: coating antigen 4-OVA		IC50	> 4 µg/mL
C=C(CC)C(=O)c1ccc(OCC(=O)NCCNC(=O)COc2ccc(C(=O)C(=C)CC)c(Cl)c2Cl)c(Cl)c1Cl	glutathione S-transferase, human	enzyme activity	A549 cell lysate	0.2 µM		inhibition	~70%
C[N+](C)(CBr)CC(=O)O	TMA lyase	TMA production, whole-cell	Proteus mirabilis, wild type			EC50	1300 nM
CC(=O)O[C@H]1C(=O)[C@]2(C)[C@@H](OC(=O)CCCNC(=O)c3cc4cc(F)c(O)c(F)c4oc3=O)C[C@H]3OC[C@@]3(OC(C)=O)[C@H]2[C@H](OC(=O)c2ccccc2)[C@]2(O)C[C@H](OC(=O)[C@H](O)[C@@H](NC(=O)c3ccccc3)c3ccccc3)C(C)=C1C2(C)C	microtubules	binding, saturation binding flow cytometry	HeLa (living)	1% FBS		Kd	2000 nM
COc1cc(CCC(C)=O)ccc1O	mAb 6-AT6	antibody binding, indirect competitive ELISA		together with: coating antigen 6-OVA		IC50	> 4 µg/mL
Cc1ccc(NC(=O)c2c(C)oc3ccc(O)c(CN4CCCCCC4)c23)cc1	HIV TAR RNA	binding, small molecule microarray			direction not given	composite Z-score	0.45
CN(C)CCCNC(=O)c1cc(NC(=O)c2cc(NC(=O)c3cc(NC(=O)c4nc(NC(=O)[C@H](N)CCNC(=O)c5cc(NC(=O)c6cc(NC(=O)c7nc(NC(=O)c8nccn8C)cn7C)co6)co5)cn4C)cn3C)cn2C)cn1C	12-mer DNA duplex	DNA binding, UV thermal denaturation		2.4 µM, pH 7.0, match base pair T·A, together with: DNA duplex 2 µM		melting temperature	74.6 ± 1 °C
C[N+](C)(CI)CC(=O)O	TMA lyase	TMA production, whole-cell	Proteus mirabilis, wild type			EC50	2600 nM
CC(=O)N[C@@H](CC(N)=O)C(=O)NCC(=O)N[C@@H](CCCNC(=N)N)C(=O)N[C@@H](C)C(N)=O	Asn-Gly peptide isomerisation to succinimide	1H NMR time course		pH 7.4, 46 °C		rate constant k1	0.0535 h⁻¹

Excerpt of the above:
SMILES	target	test	test system	conditions	how to read	quantity	value
CCCCN1C(=O)c2cccc3c(NCCCCCCN4CCOCC4)ccc(c23)C1=O	lysosomes	confocal lambda scanning	HEK293	lysosomal micro-polarity		emission maximum	519 nm
C1=[N+]2CCCC[N+]3=Cc4ccc5[n]4[Au-]23[n]2c1ccc2-c1nc2ccccc2nc1-5.F[P-](F)(F)(F)(F)F	dsDNA fragment human ACTN3 291 bp	DNA melting		50 µM		delta Tm	4.4 °C
C=C(CC)C(=O)c1ccc(OCC(=O)NCCCCNC(=O)COc2ccc(C(=O)C(=C)CC)c(Cl)c2Cl)c(Cl)c1Cl	glutathione S-transferase, human	enzyme activity	SGC-7901 cell lysate	0.2 µM		inhibition	~80%
Cc1ccc(NC(=O)c2c(C)oc3ccc(O)c(CN4CCCCCC4)c23)cc1	HIV TAR RNA	binding, small molecule microarray			direction not given	composite Z-score	0.45
